Results pooled from the literature.
Compare with care: the assays were run in different laboratories.
Target: Homeodomain-interacting protein kinase 4 (HIPK4, Homo sapiens, UniProt Q8NE63)

SMILES	assay	setting	scale	measurement	result
Cc1cccc(O[C@H]2CCC[C@@H](C(C)CNCc3ccncc3)C2)c1 (relative stereo)	enzyme activity, inhibitor	10 µM		inhibition	1%
Cc1cnc2nc1Nc1cccc(c1)COC/C=C/COCc1cc(ccc1OCCN1CCOCC1)N2	binding	0.1 µM		remaining binding	89%
Nc1ncc(-c2cc(-c3cnn(CC(F)(F)F)c3)ncc2F)nc1C(=O)NC1CNCC(F)C1 (stereo not shown)	enzyme activity	1 µM	reference: DMSO control	remaining activity	87.7%
CN1CCN(Cc2ccc(-c3ccc(CO[C@H]4CCC[C@@H]4NC(=O)c4cc(-c5cnn(C)c5)cnc4N)cc3)cc2)CC1	enzyme activity, inhibitor	0.1 µM		inhibition	7%
Cc1cc(NC(=O)[C@H](O)c2cc(F)cc(F)c2)ccc1-c1cnc(N)c(C(=O)NC(C)C)c1	binding, competition with immobilised ligand	0.1 µM		remaining binding	100%
C=CC(=O)N1CCc2ccc(-n3c(=O)ccc4cnc5ccc(-c6cnn(C)c6)cc5c43)cc21	KINOMEscan	1 µM	reference: DMSO control	remaining binding	99%
C=CC(=O)Nc1cccc(-c2cnc3[nH]cc(C(=O)NC(C)(C)C)c3n2)c1	enzyme activity, inhibitor	0.1 µM		inhibition	37%
COc1cc(Nc2nc(C)cc(-c3cnn4nc(OC)ccc34)n2)cc(C(F)(F)F)c1	inhibitor	1 µM	reference: control	remaining activity	92%
COc1c(Cl)cccc1Nc1c(-c2ccncc2C#C[C@@]2(C)CCCN2C(=O)/C=C/CN(C)C)[nH]c2c1C(=O)NCC2	binding, competition with immobilised ligand	3 µM		remaining binding	97%
CC(C)=CC1OC(C)(C)C2C=C3C(=O)C(Cl)=CC(O)C3C3C(O)C4OC4C(=O)C132 (stereo not shown)	cell-free assay, competition with immobilised ligand	10 µM		remaining binding	93%
CNC(=O)C[C@H](Cc1ccc(C#N)cc1)NC(=O)c1cc(-c2ccc(CN[C@H](C)c3ccc(C)cc3)o2)ccc1Cl	enzyme activity, inhibitor	1 µM		activity vs control	109%
NC(=O)[C@@H](O)C[C@H]1CCc2sc3ncnc(O[C@H]4CC[C@H](N5CCOCC5)CC4)c3c21	enzyme activity, inhibitor	10 µM		inhibition	8%
CCN1CCN(Cc2ccc(C(=O)Nc3ccc(C)c(NCc4cnc5[nH]ccc5c4OC)c3)cc2C(F)(F)F)CC1	binding, competition with immobilised ligand	1 µM		remaining binding	22%

Repeated from above:
SMILES	assay	setting	scale	measurement	result
Cc1cccc(O[C@H]2CCC[C@@H](C(C)CNCc3ccncc3)C2)c1 (relative stereo)	enzyme activity, inhibitor	10 µM		inhibition	1%
C=CC(=O)Nc1cccc(-c2cnc3[nH]cc(C(=O)NC(C)(C)C)c3n2)c1	enzyme activity, inhibitor	0.1 µM		inhibition	37%
